Published values of several laboratories.
Numbered parts are unrelated; each lists some results of a single study.

Block 1 — effect on: viral replication; technique: Gluc reporter; organism: SARS-CoV-2; tested at: 20 µM
Target: Replicase polyprotein 1ab, main protease (rep, Severe acute respiratory syndrome coronavirus 2, UniProt P0DTD1)
`O=[N+]([O-])c1ccc(S(=O)(=O)N2CCN(c3ccnc4cc(Cl)ccc34)CC2)c([N+](=O)[O-])c1` gave an inhibition of -3.77%.
`CCc1ccccc1NC(=O)CSC(=O)NNC(=O)[C@H](Cc1c[nH]c2ccccc12)NC(=O)OC(C)(C)C` has an inhibition of 1.29%.
With `CC(C)C[C@H](NC(=O)[C@H](Cc1ccccc1)NC(=O)c1cnccn1)B1O[C@@H]2C[C@@H]3C[C@@H](C3(C)C)[C@]2(C)O1` the inhibition was -4.14%.

Single results of other studies
With `Nc1ncnc2c([C@@H]3N[C@H](CO)[C@@H](O)[C@H]3O)c[nH]c12` the inhibition was 2% (Japanese encephalitis virus; viral replication, inhibitor; Vero 76; 3 µM).
`YTMSLGAENSVAY` — result for “frequency of responding donors”: 25% (AIM; peptide, CD8+ T cells from PBMC, human donors; baseline: positive over tested donors).
Under “pulse rate change”, `CC[C@H](C)[C@H](NC(=O)[C@H](CC(C)C)NC(=O)[C@H](Cc1c[nH]c2ccccc12)NC(=O)[C@H](CCC(N)=O)NC(=O)[C@@H](NC(=O)[C@H](Cc1ccccc1)NC(=O)[C@H](C)NC(=O)[C@H](CCCCNC(=O)COCCOCCNC(=O)COCCOCCNC(=O)CC[C@H](NC(=O)CCCCCCCCCCCCCCCCCCC(=O)O)C(=O)O)NC(=O)[C@H](CCC(N)=O)NC(=O)[C@H](C)NC(=O)[C@@H](NC(=O)[C@H](CCCCN)NC(=O)[C@H](CC(=O)O)NC(=O)[C@H](CC(C)C)NC(=O)C(C)(C)NC(=O)[C@@H](NC(=O)[C@H](CO)NC(=O)[C@H](Cc1ccc(O)cc1)NC(=O)[C@H](CC(=O)O)NC(=O)[C@H](CO)NC(=O)[C@@H](NC(=O)[C@H](Cc1ccccc1)NC(=O)[C@@H](NC(=O)CNC(=O)[C@H](CCC(=O)O)NC(=O)C(C)(C)NC(=O)[C@@H](N)Cc1ccc(O)cc1)[C@@H](C)O)[C@@H](C)O)[C@@H](C)CC)[C@@H](C)CC)C(C)C)C(=O)N[C@@H](C)C(=O)NCC(=O)NCC(=O)N1CCC[C@H]1C(=O)N[C@@H](CO)C(=O)N[C@@H](CO)C(=O)NCC(=O)N[C@@H](C)C(=O)N1CCC[C@H]1C(=O)N1CCC[C@H]1C(=O)N1CCC[C@H]1C(=O)N[C@@H](CO)C(N)=O` is recorded as 0.96 bpm (patients with type 2 diabetes; 5 mg, day 29, proof of concept, LS mean; baseline: baseline).
The responding donors of `NLYDKLVSSFLEMKS` is reported as 8% (human CD4 T cells; AIM; peptide).
`Cn1cnc(Cn2c(=O)[nH]/c(=N\c3cc4cn(C)nc4cc3Cl)n(Cc3cc(F)c(F)cc3F)c2=O)n1` has an MRT of 105 h (human, severe renal impairment, plasma; oral, 375 mg single dose).

A few entries again (block 1):
`O=[N+]([O-])c1ccc(S(=O)(=O)N2CCN(c3ccnc4cc(Cl)ccc34)CC2)c([N+](=O)[O-])c1` gave an inhibition of -3.77%.
